{"data": "Assay results gathered from unrelated publications", "4'-phosphopantetheinyl transferase PptT": "4'-phosphopantetheinyl transferase PptT (Mycobacterium tuberculosis, UniProt O33336)", "dppA": "dppA (Mycobacterium tuberculosis, UniProt I6X811)", "USP14": "Ubiquitin carboxyl-terminal hydrolase 14 (USP14, Homo sapiens, UniProt P54578)", "CNR1 Y397A": "Cannabinoid receptor 1 (CNR1, Homo sapiens, UniProt P21554, Y397A)", "note": "Protocols differ between the studies behind these lines. Numbers after ± are the reported error.", "sequence of UniProt P21554 (whole entry, unmodified, looked up)": "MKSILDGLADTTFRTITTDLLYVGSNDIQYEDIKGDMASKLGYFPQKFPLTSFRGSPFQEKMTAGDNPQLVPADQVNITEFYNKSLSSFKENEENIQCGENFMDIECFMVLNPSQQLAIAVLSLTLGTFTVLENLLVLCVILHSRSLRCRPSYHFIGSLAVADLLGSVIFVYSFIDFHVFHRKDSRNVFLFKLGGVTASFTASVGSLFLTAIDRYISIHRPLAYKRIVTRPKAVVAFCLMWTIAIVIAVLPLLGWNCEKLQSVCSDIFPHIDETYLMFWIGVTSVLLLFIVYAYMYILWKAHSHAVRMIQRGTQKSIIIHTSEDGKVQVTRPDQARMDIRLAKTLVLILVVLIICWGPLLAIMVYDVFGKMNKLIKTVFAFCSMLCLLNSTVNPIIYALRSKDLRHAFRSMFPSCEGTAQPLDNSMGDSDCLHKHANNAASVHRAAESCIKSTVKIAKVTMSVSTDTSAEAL", "sequence of UniProt O33336 (whole entry, looked up)": "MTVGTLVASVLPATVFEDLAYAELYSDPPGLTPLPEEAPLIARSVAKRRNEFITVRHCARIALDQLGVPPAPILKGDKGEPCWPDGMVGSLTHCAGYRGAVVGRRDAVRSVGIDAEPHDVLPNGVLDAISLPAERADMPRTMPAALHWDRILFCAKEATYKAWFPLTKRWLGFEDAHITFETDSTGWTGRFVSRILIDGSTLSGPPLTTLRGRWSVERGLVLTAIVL", "sequence of UniProt P54578 (whole entry, looked up)": "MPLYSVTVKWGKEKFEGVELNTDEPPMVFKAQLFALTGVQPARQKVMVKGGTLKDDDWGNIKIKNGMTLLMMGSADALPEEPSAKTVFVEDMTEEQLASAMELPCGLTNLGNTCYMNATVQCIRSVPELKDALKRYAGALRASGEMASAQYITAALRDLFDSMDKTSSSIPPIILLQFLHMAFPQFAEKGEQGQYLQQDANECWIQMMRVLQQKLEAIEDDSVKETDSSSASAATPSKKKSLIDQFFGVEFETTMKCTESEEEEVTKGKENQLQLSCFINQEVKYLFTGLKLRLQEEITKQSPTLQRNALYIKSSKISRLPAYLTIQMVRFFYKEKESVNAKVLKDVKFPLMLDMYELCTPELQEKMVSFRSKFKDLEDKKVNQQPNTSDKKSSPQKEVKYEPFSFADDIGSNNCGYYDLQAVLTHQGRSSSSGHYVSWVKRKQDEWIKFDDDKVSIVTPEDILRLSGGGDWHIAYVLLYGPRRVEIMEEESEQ", "sequence of UniProt P34972 (whole entry, unmodified, looked up)": "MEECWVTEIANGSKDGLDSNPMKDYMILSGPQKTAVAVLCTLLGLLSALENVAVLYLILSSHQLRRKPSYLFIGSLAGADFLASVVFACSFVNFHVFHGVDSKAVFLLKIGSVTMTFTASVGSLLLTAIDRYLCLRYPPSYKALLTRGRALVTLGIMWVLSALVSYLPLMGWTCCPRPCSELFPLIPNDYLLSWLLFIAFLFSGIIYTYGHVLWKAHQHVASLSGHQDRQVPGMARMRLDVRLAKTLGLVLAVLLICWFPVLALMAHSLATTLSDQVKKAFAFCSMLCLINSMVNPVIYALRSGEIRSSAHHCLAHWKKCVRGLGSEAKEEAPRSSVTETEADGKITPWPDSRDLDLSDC", "sequence of UniProt Q96GD4 (whole entry, looked up)": "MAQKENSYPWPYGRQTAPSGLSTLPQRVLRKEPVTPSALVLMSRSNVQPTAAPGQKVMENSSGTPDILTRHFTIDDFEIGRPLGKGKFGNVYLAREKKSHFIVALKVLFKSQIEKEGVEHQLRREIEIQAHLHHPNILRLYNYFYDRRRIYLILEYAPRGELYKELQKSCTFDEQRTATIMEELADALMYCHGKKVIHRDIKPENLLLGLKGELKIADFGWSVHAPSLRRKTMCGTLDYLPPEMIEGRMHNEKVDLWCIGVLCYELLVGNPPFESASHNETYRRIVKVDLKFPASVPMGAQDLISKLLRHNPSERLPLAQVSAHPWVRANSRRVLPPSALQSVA", "sequence of UniProt P30989 (whole entry, looked up)": "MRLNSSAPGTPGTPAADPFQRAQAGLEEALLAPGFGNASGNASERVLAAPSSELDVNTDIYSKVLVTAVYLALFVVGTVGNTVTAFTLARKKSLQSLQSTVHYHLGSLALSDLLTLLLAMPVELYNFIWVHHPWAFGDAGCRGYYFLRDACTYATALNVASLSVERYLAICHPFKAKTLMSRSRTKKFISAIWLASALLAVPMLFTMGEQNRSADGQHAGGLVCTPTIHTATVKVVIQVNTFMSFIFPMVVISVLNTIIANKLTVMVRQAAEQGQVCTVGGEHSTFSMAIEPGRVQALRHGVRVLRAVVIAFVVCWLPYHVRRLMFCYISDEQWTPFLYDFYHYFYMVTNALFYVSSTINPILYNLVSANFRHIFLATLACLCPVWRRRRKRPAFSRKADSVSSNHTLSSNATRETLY", "sequence of UniProt Q01959 (whole entry, looked up)": "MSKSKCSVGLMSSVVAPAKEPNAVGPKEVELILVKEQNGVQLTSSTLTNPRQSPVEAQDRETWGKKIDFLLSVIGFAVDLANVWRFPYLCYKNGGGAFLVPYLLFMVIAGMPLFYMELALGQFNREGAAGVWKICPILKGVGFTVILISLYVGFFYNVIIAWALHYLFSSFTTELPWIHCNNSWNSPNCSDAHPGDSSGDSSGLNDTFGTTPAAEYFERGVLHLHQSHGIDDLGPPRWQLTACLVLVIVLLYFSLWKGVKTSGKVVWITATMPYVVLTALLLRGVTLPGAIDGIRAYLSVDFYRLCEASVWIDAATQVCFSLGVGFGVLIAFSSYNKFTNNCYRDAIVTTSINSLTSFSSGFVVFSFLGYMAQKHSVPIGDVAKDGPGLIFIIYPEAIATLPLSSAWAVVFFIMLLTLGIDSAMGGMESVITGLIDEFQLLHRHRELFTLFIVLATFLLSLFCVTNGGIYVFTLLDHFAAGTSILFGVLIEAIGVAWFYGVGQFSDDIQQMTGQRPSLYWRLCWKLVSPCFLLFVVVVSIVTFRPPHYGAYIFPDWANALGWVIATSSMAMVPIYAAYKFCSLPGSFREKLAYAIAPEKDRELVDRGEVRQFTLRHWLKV", "sequence of UniProt P9WG47 (whole entry, looked up)": "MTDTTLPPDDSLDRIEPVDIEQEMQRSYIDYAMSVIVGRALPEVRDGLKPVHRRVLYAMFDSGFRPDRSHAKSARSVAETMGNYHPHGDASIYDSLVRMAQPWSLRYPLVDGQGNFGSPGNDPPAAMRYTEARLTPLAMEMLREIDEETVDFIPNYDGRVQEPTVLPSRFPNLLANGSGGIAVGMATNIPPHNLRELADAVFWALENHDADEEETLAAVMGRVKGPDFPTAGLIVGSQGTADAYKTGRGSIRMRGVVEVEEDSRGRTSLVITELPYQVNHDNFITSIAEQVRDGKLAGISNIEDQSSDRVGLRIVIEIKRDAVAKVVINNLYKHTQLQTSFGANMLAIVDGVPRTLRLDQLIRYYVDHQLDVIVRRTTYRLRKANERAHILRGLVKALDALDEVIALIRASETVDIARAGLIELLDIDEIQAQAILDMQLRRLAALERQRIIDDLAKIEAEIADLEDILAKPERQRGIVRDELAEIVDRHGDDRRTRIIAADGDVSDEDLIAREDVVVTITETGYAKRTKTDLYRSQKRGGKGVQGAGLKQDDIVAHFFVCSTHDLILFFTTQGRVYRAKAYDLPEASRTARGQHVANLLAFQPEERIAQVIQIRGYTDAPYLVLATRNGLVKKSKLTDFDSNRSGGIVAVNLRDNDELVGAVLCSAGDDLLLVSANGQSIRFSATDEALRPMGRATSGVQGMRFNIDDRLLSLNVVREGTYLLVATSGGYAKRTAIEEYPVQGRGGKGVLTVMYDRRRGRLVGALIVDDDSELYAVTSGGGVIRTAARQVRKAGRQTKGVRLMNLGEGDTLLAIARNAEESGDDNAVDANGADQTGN", "sequence of UniProt P35368 (whole entry, looked up)": "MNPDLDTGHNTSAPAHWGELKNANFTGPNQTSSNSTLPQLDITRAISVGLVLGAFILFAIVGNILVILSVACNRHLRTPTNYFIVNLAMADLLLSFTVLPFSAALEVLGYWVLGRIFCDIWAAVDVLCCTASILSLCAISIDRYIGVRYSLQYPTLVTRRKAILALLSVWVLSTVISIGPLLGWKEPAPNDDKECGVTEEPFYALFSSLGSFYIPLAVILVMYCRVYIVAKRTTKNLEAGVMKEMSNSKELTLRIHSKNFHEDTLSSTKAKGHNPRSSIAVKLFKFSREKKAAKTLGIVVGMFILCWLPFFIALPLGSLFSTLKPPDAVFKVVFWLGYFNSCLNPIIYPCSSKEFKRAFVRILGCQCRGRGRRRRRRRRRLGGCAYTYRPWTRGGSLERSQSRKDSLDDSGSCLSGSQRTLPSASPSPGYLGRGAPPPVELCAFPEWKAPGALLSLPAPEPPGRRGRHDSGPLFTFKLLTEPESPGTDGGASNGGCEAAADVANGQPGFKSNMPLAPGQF"}
{"SMILES": "CC[C@H](C)[C@@H]1NC(=O)CNC(=O)[C@@H]2Cc3c([nH]c4cc(O)ccc34)[S@+]([O-])C[C@H](NC(=O)CNC1=O)C(=O)N[C@@H](CC(N)=O)C(=O)N1C[C@H](O)C[C@H]1C(=O)N[C@@H]([C@@H](C)[C@@H](O)CO)C(=O)N2", "target": "DNA-directed RNA polymerase II subunit RPB1 (Homo sapiens, UniProt P24928)", "test system": "HeLa nuclear extract", "setting": "1.0 nM, 60 min", "measurement": "transcription activity", "value": "85 ± 2%"}
{"SMILES": "C#CCN(Cc1ccc2nc(C)[nH]c(=O)c2c1)c1ccc(C(=O)NC(CCC(=O)O)C(=O)O)c(N)c1 (stereo not shown)", "target": "4'-phosphopantetheinyl transferase PptT", "test": "enzyme activity, inhibitor, fluorescence polarisation", "measurement": "Hill slope", "value": 0.9}
{"SMILES": "CCCCCn1cc(C(=O)c2ccc3ccccc3c2)c2ccccc21", "target": "CNR1 (Homo sapiens, UniProt P21554, F177A)", "test": "Gαi1 engagement, agonist, BRET", "how to read": "reference: reference agonist at wild-type CB1", "measurement": "Emax", "value": "10.9 ± 2.2%"}
{"SMILES": "CC(C)[C@H](N)C(=O)N[C@H](C(=O)N[C@H](C(=O)O)C(C)C)C(C)C", "target": "dppA", "measurement": "delta Tm", "value": "≥ 2 °C"}
{"SMILES": "C#CCN(Cc1ccc2nc(C)[nH]c(=O)c2c1)c1ccc(C(=O)N[C@@H](CC(=O)NCC(=O)O)C(=O)O)cc1", "target": "4'-phosphopantetheinyl transferase PptT", "test": "enzyme activity, inhibitor, fluorescence polarisation", "measurement": "Hill slope", "value": 0.9}
{"SMILES": "CCN(CC)C(=O)[C@@H]1C=C2c3cccc4c3c(cn4C(=O)c3ccco3)C[C@H]2N(C)C1", "target": "ADRA1B (Homo sapiens, UniProt P35368)", "test": "radioligand binding", "setting": "10 µM", "measurement": "inhibition", "value": "< 50%"}
{"SMILES": "C#CCN(Cc1ccc2nc(C)[nH]c(=O)c2c1)c1ccc(C(=O)N[C@H](CCC(=O)O)C(=O)O)cc1", "target": "4'-phosphopantetheinyl transferase PptT", "test": "enzyme activity, inhibitor, fluorescence polarisation", "measurement": "Hill slope", "value": 1.2}
{"SMILES": "CCC[C@H](C(=O)c1ccccc1)N1CCCC1", "target": "SLC6A3 (Homo sapiens, UniProt Q01959)", "test": "DAT-mediated current, inhibitor, electrophysiology", "test system": "human DAT-expressing cells", "setting": "100 µM, together with: 30 µM dopamine", "measurement": "maximal inhibition rate (kapp max)", "value": "0.7 s⁻¹"}
{"SMILES": "CN1C(=O)C(=Cc2ccc(I)o2)C(=O)NC1=S", "target": "USP14", "test": "enzyme activity, inhibitor", "setting": "17 µM", "measurement": "inhibition", "value": "36%"}
{"SMILES": "Nc1ccc(/C=C/C(=O)N2CCc3c(oc4c(-c5ccc(F)cc5)cc(-c5ccc(C(=O)N6CCC(F)(F)CC6)cn5)cc34)C2)cn1", "target": "Aurora kinase B (AURKB, Homo sapiens, UniProt Q96GD4)", "test": "binding, competition with immobilised ligand", "setting": "1 µM", "measurement": "remaining binding", "value": "92%"}
{"SMILES": "COc1ccc(CC2C(=O)NC(=O)N(c3cccc(Cl)c3)C2=O)cc1 (stereo not shown)", "target": "USP14", "test": "enzyme activity, inhibitor", "setting": "17 µM", "measurement": "inhibition", "value": "28%"}
{"SMILES": "CN(Cc1ccc2nc(CF)[nH]c(=O)c2c1)c1ccc(C(=O)NC(CCC(=O)O)C(=O)O)s1 (stereo not shown)", "target": "4'-phosphopantetheinyl transferase PptT", "test": "enzyme activity, inhibitor, fluorescence polarisation", "measurement": "Hill slope", "value": 0.9}
{"SMILES": "CC(C)[C@H](NC(=O)[C@H](CCCCN)NC(=O)[C@@H](N)CCCCN)C(=O)O", "target": "dppA", "setting": "pH 7.4", "measurement": "kon", "value": "2.99 ± 3000 M⁻¹ s⁻¹"}
{"SMILES": "CCN(Cc1ccc2nc(C)[nH]c(=O)c2c1)c1cnc(C(=O)NC(CCC(=O)O)C(=O)O)s1 (stereo not shown)", "target": "4'-phosphopantetheinyl transferase PptT", "test": "enzyme activity, inhibitor, fluorescence polarisation", "measurement": "Hill slope", "value": 1.2}
{"SMILES": "COc1ccc2ncc(F)c(C[C@H](O)[C@H]3OC[C@H](NCc4ccc5c(n4)NC(=O)CO5)CO3)c2c1", "target": "DNA gyrase subunit A, with GyrB (Mycobacterium tuberculosis, UniProt P9WG47)", "test": "DNA cleavage", "setting": "concentration not given, 10 min, 37 °C, together with: gyrase 100 nM", "measurement": "maximal single-stranded DNA breaks", "value": "~15%"}
{"SMILES": "Cc1sc2c(c1C)C(c1ccc(Cl)cc1)=NC(CC(=O)OC(C)(C)C)c1nnc(C)n1-2 (stereo not shown)", "target": "NTSR1 (Homo sapiens, UniProt P30989)", "test": "ligand displacement, radioligand", "setting": "1 µM", "measurement": "remaining binding", "value": "104%"}
{"SMILES": "O=[N+]([O-])CC(c1ccco1)c1c(-c2ccccc2)[nH]c2ccccc12 (stereo not shown)", "target": "CNR1 (Homo sapiens, UniProt P21554, I245L)", "test": "Gαi1-γ2 dissociation, BRET", "measurement": "Emax", "value": "109 ± 9.32%"}
{"SMILES": "Cc1nc2ccc(CN(C)c3ccc(C(=O)NC(CCC(=O)O)CC(=O)O)cc3)cc2c(=O)[nH]1 (stereo not shown)", "target": "4'-phosphopantetheinyl transferase PptT", "test": "enzyme activity, inhibitor, fluorescence polarisation", "measurement": "Hill slope", "value": 1.4}
{"SMILES": "Cc1ccc2c(C(C[N+](=O)[O-])c3cccs3)c(-c3ccccc3)[nH]c2c1 (stereo not shown)", "target": "CNR1 Y397A", "test": "Gαi1-γ2 dissociation, BRET", "measurement": "Emax", "value": "56.7 ± 1.19%"}
{"SMILES": "CCCCCn1cc(C(=O)c2cccc3c2CC(C)(C)C3)c2ccccc21", "target": "CNR2 (Homo sapiens, UniProt P34972)", "test": "agonist, BRET", "how to read": "reference: Gαi1 over β-arrestin 2, reference agonist", "measurement": "bias factor (ΔΔlog(Emax/EC50))", "value": -0.64}
{"SMILES": "COc1ccccc1C(C[N+](=O)[O-])c1c(-c2ccccc2)[nH]c2ccccc12 (stereo not shown)", "target": "CNR1 Y397A", "test": "Gαi1-γ2 dissociation, BRET", "measurement": "Emax", "value": "64.8 ± 5.49%"}
{"SMILES": "CC(C)[C@H](NC(=O)[C@H](CO)NC(=O)[C@@H](N)CO)C(=O)N[C@H](C(=O)O)[C@@H](C)O", "target": "dppA", "test": "thermal stability", "setting": "50 µM", "measurement": "ΔTm", "value": "4.4 °C"}
{"note": "Excerpt of the above:"}
{"SMILES": "C#CCN(Cc1ccc2nc(C)[nH]c(=O)c2c1)c1ccc(C(=O)N[C@H](CCC(=O)O)C(=O)O)cc1", "target": "4'-phosphopantetheinyl transferase PptT", "test": "enzyme activity, inhibitor, fluorescence polarisation", "measurement": "Hill slope", "value": 1.2}
{"SMILES": "Cc1sc2c(c1C)C(c1ccc(Cl)cc1)=NC(CC(=O)OC(C)(C)C)c1nnc(C)n1-2 (stereo not shown)", "target": "NTSR1 (Homo sapiens, UniProt P30989)", "test": "ligand displacement, radioligand", "setting": "1 µM", "measurement": "remaining binding", "value": "104%"}
